Experimental data gathered from unrelated publications.
Every numbered part comes from another study and shows a few of its results, in no order.
Sequence of UniProt Q14330 (whole entry, looked up): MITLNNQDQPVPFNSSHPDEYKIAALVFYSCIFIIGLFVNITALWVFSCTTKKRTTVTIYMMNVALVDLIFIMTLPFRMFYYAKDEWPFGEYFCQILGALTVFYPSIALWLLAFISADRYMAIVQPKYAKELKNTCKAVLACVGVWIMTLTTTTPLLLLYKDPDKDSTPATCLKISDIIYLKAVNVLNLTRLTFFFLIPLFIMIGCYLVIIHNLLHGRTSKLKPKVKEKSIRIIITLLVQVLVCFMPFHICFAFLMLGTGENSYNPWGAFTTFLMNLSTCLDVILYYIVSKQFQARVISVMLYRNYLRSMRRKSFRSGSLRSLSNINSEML
Sequence of UniProt P34969 (whole entry, looked up): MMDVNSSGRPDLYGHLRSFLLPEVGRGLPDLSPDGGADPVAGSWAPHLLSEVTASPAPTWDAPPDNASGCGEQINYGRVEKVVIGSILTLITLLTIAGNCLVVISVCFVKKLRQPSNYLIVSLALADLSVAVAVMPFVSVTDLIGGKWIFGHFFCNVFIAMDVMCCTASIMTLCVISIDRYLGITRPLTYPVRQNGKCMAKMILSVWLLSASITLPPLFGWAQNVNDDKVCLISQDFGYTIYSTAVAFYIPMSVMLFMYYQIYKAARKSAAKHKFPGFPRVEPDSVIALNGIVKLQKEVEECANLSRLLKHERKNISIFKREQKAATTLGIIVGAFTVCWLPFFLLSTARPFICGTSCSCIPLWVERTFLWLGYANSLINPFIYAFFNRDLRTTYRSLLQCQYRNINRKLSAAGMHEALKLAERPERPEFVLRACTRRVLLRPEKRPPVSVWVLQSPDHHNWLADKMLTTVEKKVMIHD
Sequence of UniProt Q15722 (whole entry, looked up): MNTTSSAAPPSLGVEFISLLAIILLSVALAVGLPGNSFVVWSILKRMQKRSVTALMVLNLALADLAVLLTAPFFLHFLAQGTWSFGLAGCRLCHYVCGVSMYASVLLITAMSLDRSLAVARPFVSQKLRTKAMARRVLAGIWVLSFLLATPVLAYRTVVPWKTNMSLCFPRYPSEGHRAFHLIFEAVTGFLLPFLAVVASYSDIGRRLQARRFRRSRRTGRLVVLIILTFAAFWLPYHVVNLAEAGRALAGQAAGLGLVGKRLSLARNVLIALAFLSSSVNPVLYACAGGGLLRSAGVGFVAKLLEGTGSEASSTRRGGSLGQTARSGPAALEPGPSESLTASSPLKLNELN
Sequence of UniProt O60674 (whole entry, looked up): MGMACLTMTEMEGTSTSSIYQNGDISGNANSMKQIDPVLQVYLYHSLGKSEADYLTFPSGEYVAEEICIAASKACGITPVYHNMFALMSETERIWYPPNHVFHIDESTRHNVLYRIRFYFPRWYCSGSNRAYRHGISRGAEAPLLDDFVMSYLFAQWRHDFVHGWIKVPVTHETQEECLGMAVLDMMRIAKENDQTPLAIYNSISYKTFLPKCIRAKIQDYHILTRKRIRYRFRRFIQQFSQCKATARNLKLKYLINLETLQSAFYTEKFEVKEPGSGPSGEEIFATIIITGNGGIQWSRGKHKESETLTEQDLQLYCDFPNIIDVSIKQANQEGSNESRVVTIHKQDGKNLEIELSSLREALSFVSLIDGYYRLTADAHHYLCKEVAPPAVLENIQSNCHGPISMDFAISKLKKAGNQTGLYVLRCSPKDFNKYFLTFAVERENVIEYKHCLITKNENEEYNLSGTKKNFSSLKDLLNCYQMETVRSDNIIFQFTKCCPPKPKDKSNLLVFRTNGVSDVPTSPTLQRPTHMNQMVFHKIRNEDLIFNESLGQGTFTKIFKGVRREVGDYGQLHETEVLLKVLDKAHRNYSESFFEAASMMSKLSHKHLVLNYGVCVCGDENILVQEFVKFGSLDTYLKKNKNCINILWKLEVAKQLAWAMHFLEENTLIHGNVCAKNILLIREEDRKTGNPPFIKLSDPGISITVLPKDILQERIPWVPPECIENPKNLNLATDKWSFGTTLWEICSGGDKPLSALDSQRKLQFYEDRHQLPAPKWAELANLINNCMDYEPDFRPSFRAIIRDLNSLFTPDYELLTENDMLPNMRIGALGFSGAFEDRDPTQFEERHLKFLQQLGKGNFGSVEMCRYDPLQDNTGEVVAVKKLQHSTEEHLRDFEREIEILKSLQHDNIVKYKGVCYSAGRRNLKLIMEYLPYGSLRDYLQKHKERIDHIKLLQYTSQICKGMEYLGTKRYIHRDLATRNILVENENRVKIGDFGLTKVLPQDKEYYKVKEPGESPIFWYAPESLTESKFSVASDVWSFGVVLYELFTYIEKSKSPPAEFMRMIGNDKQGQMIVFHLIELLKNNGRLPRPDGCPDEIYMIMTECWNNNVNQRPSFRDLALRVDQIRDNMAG
Sequence of UniProt Q969N4 (whole entry, looked up): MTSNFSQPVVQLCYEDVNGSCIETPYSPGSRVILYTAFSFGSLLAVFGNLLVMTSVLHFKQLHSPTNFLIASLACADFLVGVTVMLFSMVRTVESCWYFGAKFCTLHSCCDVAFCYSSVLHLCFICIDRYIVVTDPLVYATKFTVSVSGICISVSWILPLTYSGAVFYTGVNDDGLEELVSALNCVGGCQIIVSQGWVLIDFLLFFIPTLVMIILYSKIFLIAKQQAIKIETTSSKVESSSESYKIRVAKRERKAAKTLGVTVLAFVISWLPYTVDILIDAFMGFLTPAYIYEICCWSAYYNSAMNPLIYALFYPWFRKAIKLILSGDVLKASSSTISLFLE
Sequence of UniProt P32249 (whole entry, looked up): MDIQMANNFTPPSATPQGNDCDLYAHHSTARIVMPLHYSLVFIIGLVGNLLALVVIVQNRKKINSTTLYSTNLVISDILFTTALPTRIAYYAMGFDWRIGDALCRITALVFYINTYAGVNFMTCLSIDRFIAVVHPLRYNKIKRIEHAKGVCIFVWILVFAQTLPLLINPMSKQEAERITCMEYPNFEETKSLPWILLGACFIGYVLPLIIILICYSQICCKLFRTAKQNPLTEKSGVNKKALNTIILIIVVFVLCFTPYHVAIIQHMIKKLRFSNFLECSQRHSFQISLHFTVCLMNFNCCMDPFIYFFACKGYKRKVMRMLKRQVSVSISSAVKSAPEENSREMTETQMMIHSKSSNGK
Sequence of UniProt Q01726 (whole entry, looked up): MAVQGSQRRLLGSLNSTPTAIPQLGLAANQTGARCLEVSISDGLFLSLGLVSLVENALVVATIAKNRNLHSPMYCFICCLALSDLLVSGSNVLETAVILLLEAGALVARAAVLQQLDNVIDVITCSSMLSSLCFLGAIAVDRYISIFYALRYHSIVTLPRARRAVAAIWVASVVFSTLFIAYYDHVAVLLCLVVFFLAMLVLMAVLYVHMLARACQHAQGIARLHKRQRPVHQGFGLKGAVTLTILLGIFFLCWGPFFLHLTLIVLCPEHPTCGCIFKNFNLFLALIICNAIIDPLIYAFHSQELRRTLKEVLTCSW
Sequence of UniProt P04201 (whole entry, looked up): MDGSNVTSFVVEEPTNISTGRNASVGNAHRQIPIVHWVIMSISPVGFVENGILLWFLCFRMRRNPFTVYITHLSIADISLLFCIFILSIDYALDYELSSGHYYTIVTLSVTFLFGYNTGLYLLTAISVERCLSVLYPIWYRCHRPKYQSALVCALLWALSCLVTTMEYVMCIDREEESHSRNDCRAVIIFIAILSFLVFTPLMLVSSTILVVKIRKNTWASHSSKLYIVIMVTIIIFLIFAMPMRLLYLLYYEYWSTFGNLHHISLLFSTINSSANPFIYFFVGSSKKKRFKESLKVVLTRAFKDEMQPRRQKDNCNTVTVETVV

Set 1
SMILES: CNCc1ccccc1-c1csc([C@@H](C)Nc2nc(C)nc3cc(OC)c(OC)cc23)c1
Concentration: 1 µM
target | assay | remaining binding
Serine/threonine-protein kinase TNNI3K (TNNI3K, Homo sapiens, UniProt Q59H18) | cell-free assay, competition with immobilised ligand | 100%
Cytoplasmic tyrosine-protein kinase BMX (BMX, Homo sapiens, UniProt P51813) | cell-free assay, competition with immobilised ligand | 49%
Dual specificity tyrosine-phosphorylation-regulated kinase 1A (DYRK1A, Homo sapiens, UniProt Q13627) | cell-free assay, competition with immobilised ligand | 88%
RAF proto-oncogene serine/threonine-protein kinase (RAF1, Homo sapiens, UniProt P04049) | cell-free assay, competition with immobilised ligand | 70%
Citron Rho-interacting kinase (CIT, Homo sapiens, UniProt O14578) | cell-free assay, competition with immobilised ligand | 92%
Proto-oncogene tyrosine-protein kinase Src (SRC, Homo sapiens, UniProt P12931) | cell-free assay, competition with immobilised ligand | 100%
Tyrosine-protein kinase Lyn (LYN, Homo sapiens, UniProt P07948) | cell-free assay, competition with immobilised ligand | 100%
Epithelial discoidin domain-containing receptor 1 (DDR1, Homo sapiens, UniProt Q08345) | cell-free assay, competition with immobilised ligand | 100%
Serine/threonine-protein kinase 4 (STK4, Homo sapiens, UniProt Q13043) | cell-free assay, competition with immobilised ligand | 100%
Non-receptor tyrosine-protein kinase TNK1 (TNK1, Homo sapiens, UniProt Q13470) | cell-free assay, competition with immobilised ligand | 64%
Tyrosine-protein kinase receptor UFO (AXL, Homo sapiens, UniProt P30530) | cell-free assay, competition with immobilised ligand | 93%
Serine/threonine-protein kinase ULK1 (ULK1, Homo sapiens, UniProt O75385) | cell-free assay, competition with immobilised ligand | 88%
Ephrin type-B receptor 4 (EPHB4, Homo sapiens, UniProt P54760) | cell-free assay, competition with immobilised ligand | 99%
Leukocyte tyrosine kinase receptor (LTK, Homo sapiens, UniProt P29376) | cell-free assay, competition with immobilised ligand | 97%
Leucine-rich repeat serine/threonine-protein kinase 2 (LRRK2, Homo sapiens, UniProt Q5S007) | cell-free assay, competition with immobilised ligand | 100%
Ephrin type-B receptor 6 (EPHB6, Homo sapiens, UniProt O15197) | cell-free assay, competition with immobilised ligand | 98%
Tyrosine-protein kinase ABL1, phosphorylated (ABL1, Homo sapiens, UniProt P00519) | cell-free assay, competition with immobilised ligand | 97%
Tyrosine-protein kinase JAK2, JH1 (JAK2, Homo sapiens, UniProt O60674) | cell-free assay, competition with immobilised ligand | 67%
AP2-associated protein kinase 1 (AAK1, Homo sapiens, UniProt Q2M2I8) | binding | 95%
Receptor-type tyrosine-protein kinase FLT3 (FLT3, Homo sapiens, UniProt P36888, F691L/ITD) | cell-free assay, competition with immobilised ligand | 57%

Set 2
Target: Receptor tyrosine-protein kinase erbB-2 (ERBB2, Homo sapiens, UniProt P04626)
Read-out: enzyme activity
Mode: inhibitor
Concentration: 0.5 µM
Baseline: control
Compound | remaining activity
CN1CCN(c2ccc3nc(-c4c(N)c5c(F)cccc5[nH]c4=O)[nH]c3c2)CC1 | 106%
CCCCc1c(-c2ccc(OC)cc2)[nH]c2nccnc12 | 96.4%
CN(C)S(=O)(=O)c1ccc2c(c1)/C(=C/c1cc3c([nH]1)CCCC3)C(=O)N2 | 101%
CCCNC(=O)Nc1ccc(Oc2ncnc3cc(OC)c(OC)cc23)cc1Cl | 116%
O=c1cc(N2CCOCC2)oc2c(-c3ccccc3)cccc12 | 104%
c1ccc(-c2n[nH]c3c2oc2ccccc23)cc1 | 104%
Oc1cccc(-c2nc(N3CCOCC3)c3oc4ncccc4c3n2)c1 | 105%
O=C(c1cc2cc(O)ccc2[nH]1)c1cc2cc(O)ccc2[nH]1 | 113%
Cc1ccc(S(=O)(=O)/C=C/C#N)cc1 | 94.2%
COc1ccc2c(c1)c(C1=C(c3c[nH]c4ccccc34)C(=O)NC1=O)cn2CCCN(C)C | 115%
c1ccc2c(-c3ccncc3)c[nH]c2c1 | 95.6%
O=C1NC(=O)c2c1c1c3ccccc3[nH]c1c1[nH]c3cc(Br)ccc3c21 | 101%
O=C1Nc2ccccc2/C1=C\c1c(Cl)[nH]c2ccccc12 | 97.3%
O=C1Cc2c([nH]c3ccc(Br)cc23)-c2ccccc2N1 | 103%
COc1cccc(-c2cc(=O)c3ccccc3o2)c1N | 106%
O=Nc1c(-c2c(O)[nH]c3cc(Br)ccc23)[nH]c2ccccc12 | 102%
O=C1NC(=O)c2c1c1c3ccccc3[nH]c1n1cncc21 | 109%
O=C1Nc2ccc(Br)cc2/C1=C/c1cc2c([nH]1)CCCC2 | 115%
N#Cc1cnc2cnc(NCc3cccnc3)cc2c1Nc1ccc(F)c(Cl)c1 | 91.7%
Cc1cc(Nc2cc(N3CCN(C)CC3)nc(Sc3ccc(NC(=O)C4CC4)cc3)n2)[nH]n1 | 102%

Set 3
Structure (SMILES): N=C(N)NC(=O)c1cnn(-c2cccc3ncccc23)c1C1CC1
Read-out: β-arrestin recruitment
Mode: agonist
Method: PRESTO-Tango
Concentration: 10 µM
Baseline: untreated
target | fold over basal
Somatostatin receptor type 3 (SSTR3, Homo sapiens, UniProt P32745) | 0.81 fold
Adenosine receptor A2b (ADORA2B, Homo sapiens, UniProt P29275) | 0.69
Leukotriene B4 receptor 1 (LTB4R, Homo sapiens, UniProt Q15722) | 0.91
Melanocyte-stimulating hormone receptor (MC1R, Homo sapiens, UniProt Q01726) | 0.76
5-hydroxytryptamine receptor 7 (HTR7, Homo sapiens, UniProt P34969) | 1.14
N-arachidonyl glycine receptor (GPR18, Homo sapiens, UniProt Q14330) | 0.86
Proto-oncogene Mas (Homo sapiens, UniProt P04201) | 1.03
Oxoeicosanoid receptor 1 (OXER1, Homo sapiens, UniProt Q8TDS5) | 1.11
Trace amine-associated receptor 8 (TAAR8, Homo sapiens, UniProt Q969N4) | 1.03 fold
Mas-related G-protein coupled receptor member X1 (MRGPRX1, Homo sapiens, UniProt Q96LB2) | 1.01
G-protein coupled receptor 68 (GPR68, Homo sapiens, UniProt Q15743) | 0.83
Proteinase-activated receptor 4 (F2RL3, Homo sapiens, UniProt Q96RI0) | 1 fold
ADGRG1 (Homo sapiens, UniProt Q9Y653) | 1.15
G-protein coupled receptor 183 (GPR183, Homo sapiens, UniProt P32249) | 1.21

Set 4
Target: Diamine acetyltransferase 1 (Homo sapiens, UniProt P21673)
Mode: inhibitor
Concentration: 10 µM
Baseline: control
Residues (P21673 1-171): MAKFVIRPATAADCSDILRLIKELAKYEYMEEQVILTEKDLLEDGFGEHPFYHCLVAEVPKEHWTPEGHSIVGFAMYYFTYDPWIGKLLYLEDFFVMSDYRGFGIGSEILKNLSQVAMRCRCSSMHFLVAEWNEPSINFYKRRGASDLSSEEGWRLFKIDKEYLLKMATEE
Structure (SMILES) | remaining activity [%]
COc1c2ccoc2c(OC[C@@H](O)C(C)(C)O)c2oc(=O)ccc12 | 89.7
O=c1c(O)c(-c2ccccc2)oc2ccccc12 | 82.7
CCCCCCCC/C=C/CCCCCCCC(=O)O | 85.6
CCOC(=O)CC(O)(CC(=O)OCC)C(=O)OCC | 85.9
C[C@H](CC[C@@H](O[C@@H]1O[C@H](CO[C@@H]2O[C@H](CO)[C@@H](O)[C@H](O)[C@H]2O)[C@@H](O)[C@H](O)[C@H]1O[C@@H]1O[C@H](CO)[C@@H](O)[C@H](O)[C@H]1O)C(C)(C)O)[C@H]1CC[C@@]2(C)[C@@H]3CC=C4[C@@H](CC[C@H](O[C@@H]5O[C@H](CO[C@@H]6O[C@H](CO)[C@@H](O)[C@H](O)[C@H]6O)[C@@H](O)[C@H](O)[C@H]5O)C4(C)C)[C@]3(C)C(=O)C[C@]12C | 96.3
CCCCCCCCCC(=O)O | 98.3
CC1(C)[C@H]2CC[C@]1(C)[C@H](O)C2 | 96.1
Cc1cc(O)c2c(c1)Cc1cc(O)cc(O)c1C2=O | 81.2
COC(=O)C1=CO[C@@H](O[C@@H]2O[C@H](CO)[C@@H](O)[C@H](O)[C@H]2O)[C@@H]2C(CO)=CC[C@H]12 | 84.3
CC1(C)CC[C@]2(C)CC[C@]3(C)C(=CC[C@@H]4[C@@]5(C)CC[C@H](O)C(C)(C)[C@@H]5CC[C@]43C)[C@@H]2C1 | 107
CCCCCCCCCCCCCCCCCCC(=O)O | 102

Excerpt of the above (set 1):
target | assay | remaining binding
Tyrosine-protein kinase Lyn (LYN, Homo sapiens, UniProt P07948) | cell-free assay, competition with immobilised ligand | 100%
Epithelial discoidin domain-containing receptor 1 (DDR1, Homo sapiens, UniProt Q08345) | cell-free assay, competition with immobilised ligand | 100%
Serine/threonine-protein kinase 4 (STK4, Homo sapiens, UniProt Q13043) | cell-free assay, competition with immobilised ligand | 100%
Non-receptor tyrosine-protein kinase TNK1 (TNK1, Homo sapiens, UniProt Q13470) | cell-free assay, competition with immobilised ligand | 64%
Tyrosine-protein kinase receptor UFO (AXL, Homo sapiens, UniProt P30530) | cell-free assay, competition with immobilised ligand | 93%
Serine/threonine-protein kinase ULK1 (ULK1, Homo sapiens, UniProt O75385) | cell-free assay, competition with immobilised ligand | 88%
Ephrin type-B receptor 4 (EPHB4, Homo sapiens, UniProt P54760) | cell-free assay, competition with immobilised ligand | 99%
Leukocyte tyrosine kinase receptor (LTK, Homo sapiens, UniProt P29376) | cell-free assay, competition with immobilised ligand | 97%
